Published values gathered from unrelated publications.
Each numbered part is a random draw from the data of one study; scales do not carry over between parts.

Set 1
Target: RNA binding protein fox-1 homolog 2, RRM domain, GST-SBP tag (RBFOX2, Homo sapiens, UniProt O43251-10, residues 100-194)
Method: RNA Bind-n-Seq
Form: RNA
Medium: in vitro
Concentration: 365 nM
Notes: natural RNA segment, single round, ends assumed
Relative to: no-protein control
Reading: higher = stronger binding
Quantity: RBNS enrichment (R)
All sequences stand within: GGGAGUUCUACAGUCCGACGAUC … UGGAAUUCUCGGGUGCCAA
Target sequence (chain): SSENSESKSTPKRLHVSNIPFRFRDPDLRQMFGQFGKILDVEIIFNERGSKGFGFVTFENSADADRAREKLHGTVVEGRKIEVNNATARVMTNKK
UUGUAUUUUUAAAAUACAGGAGGGCGGGCGCUAACCAGAUCUUGACUGAUAUGGAAACGUACUUUUGUAUUUCAUGCUCAAGAGGAGUUUUGUUUUUGCUUUUUGUUGUU: 0.52
GGGAGAAUUGCACACAGAUGUGAAAUGAAUGUAAUCUAAUAGAAGCCUAAUCAGCCCACCAUGUUCUCCACUGAAAAAUCCUCUUUCUUUGGGGUUUUUCUUUCUUUCUU: 2.65
GAAGCUGGCUGUUUAAGGGAACCCAGAAGUGAAUUCUUUUGUAAAGUAAAGCACCCUUUUGUAAUGCAAUUAAUUAUCCCUUAAUGUAUCUGUUUUGUAAGUCUGCAUUU: 0.792
AAUGGUAGCUACCUCAAACCUCAUUACGAAUUCAAUGAGUUAAACUUGAAAAGACUUAUUACAGUAGCUGGCACAUAAAGACUUGAUAGUAGUUUAUAUGGAUGCUAUCU: 0.603
CAGGGGUUGAGACAGGCUUGGGUAAACAUUGUCACCCAAGCUUCAGCUCCUCCGGUUAUUUCCUUGCCACUGCCUGCCCGAGCCACUUCAAGCCUUAGGAACUGGCAGAC: 0.702
AGCAAGGCGCCCAUGCCACACACCGUCUCUCGAGGAAACGCGGUUCAGCGAUUCUUUGACUGCGGACCCUGUGGGAAACCCCGUCAAUAAAUGUUAAAGACACACUCCGA: 0.239
CUGUCCCACUCCCACAUGUCUGGGCACCUGCCCUGGGCUGAGGCCAGGCUGCUCCAGGGGCCUCCUGCGCCCUCACCUGCCACAGAGCAACCCAGGUUAAAUACAGCCCA: 0.318
UCGACAAGCCAGCACAGGCGAAGUGAUGGUUCCCACAGCACCCCCAAUAAAAACUGGGAUUUUGAAUGUGGCUCUACAAGUUAAACAUUUCUGUGUGUUGUGUAUGCUAG: 0.362

Set 2
Target: Interferon regulatory factor 7, full length, phosphomimetic (IRF7, Homo sapiens, UniProt Q92985, residues 1-503, S471D/S472D/S475D/S476D/S477D/S483D/S484D/S487D)
UniProt Q92985, sequence (whole entry, unmodified, looked up): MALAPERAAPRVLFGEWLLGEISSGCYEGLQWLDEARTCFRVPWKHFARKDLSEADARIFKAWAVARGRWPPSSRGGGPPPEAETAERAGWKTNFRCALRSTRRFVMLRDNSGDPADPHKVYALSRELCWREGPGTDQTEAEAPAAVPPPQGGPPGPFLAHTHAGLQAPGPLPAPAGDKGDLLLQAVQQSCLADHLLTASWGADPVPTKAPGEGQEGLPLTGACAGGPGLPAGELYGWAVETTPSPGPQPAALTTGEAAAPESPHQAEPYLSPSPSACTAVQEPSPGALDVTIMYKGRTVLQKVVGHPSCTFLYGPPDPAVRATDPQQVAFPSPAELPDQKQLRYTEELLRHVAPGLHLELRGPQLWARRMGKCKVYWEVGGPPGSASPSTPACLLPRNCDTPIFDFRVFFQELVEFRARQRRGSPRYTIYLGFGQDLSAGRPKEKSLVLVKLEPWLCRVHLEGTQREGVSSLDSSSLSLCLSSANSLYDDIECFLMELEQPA
Method: protein-binding microarray
Form: double-stranded DNA, one strand shown
Medium: in vitro
Concentration: 2200 nM top
Notes: 60-bp whole probe
Together with: salmon DNA 0.4 mg/ml
Relative to: random background probes
Reading: higher = stronger binding
Quantity: fitted relative affinity
All sequences stand within: GCCTAGCAC … GTCTTGATTCGCTTGACGCTGCTG
GACGATTTGAGTTCCGAGACGTGCTAG: 0.4 z-score
TTAGATATCGGGTATCGACTAGTGCTA: 0.129 z-score
TTAGAACTCGGGTATCGATTAGTGCTA: 0.414 z-score
ACTAGTTTTCATTTTCTGAAGTGCTAG: 5.07 z-score
TGAGGACTGCTTTTCCTTTAGTGCTAG: 1.24 z-score
TTGGGTATCGGGACTGGGTTAGTGCTA: -0.202 z-score
GACGGTAGCCTTCTCCTGACGTGCTAG: 0.134 z-score
GACGATTTCGGGTTTGGAGACGTGCTA: 4.18 z-score

Set 3
Target: Fragile X messenger ribonucleoprotein 1, C-terminal low-complexity region (Fmr1, Mus musculus, UniProt P35922)
Method: RNA Bind-n-Seq
Form: RNA
Medium: in vitro
Concentration: 200 nM
Notes: whole 134-nt RNA, ends assumed
Together with: 150 mM LiCl
Relative to: input library
Reading: higher = stronger binding
Quantity: log2 enrichment
Library: 7-deaza-guanosine replaces G
All sequences stand within: GGGAGUUCUACAGUCCGACGAUC … UGGAAUUCUCGGGUGUCAAGG
AGUCCUGUGCUACACAUCGUAUGUACCGAAUCGGGAGGGAAAAAAAGGGUUUUUGGGAAAGUAUUAUGUUACGCCGUUCGGAUCUGCACU: -2.03
GGCACAGGUGCCCGACCAUACACUGGGAAAGUUGGUGCUGAGGAUGCCGAUGGGAUUGACAUGGCCUACCGGGUGCUGGCUGACCACGCU: -2.76
CAAGUCCUGUGCUACACAUCGUAUGUACCGAAUCGGGAGGGUGGGUUUUUUUGGGAAAGUAUUAUGUUACGCCGUUCGGAUCUGCACUUC: -0.73
AGGGAGGUGGAUUUUGUUUAUUUUUUUAGCUCAUUUCCAGGGGUGGGAAUUUUUUUUUAAUAUGUGUCAUGAAUAAAGUUGUUUUUGAAA: 0.657
UGGCCCUGGUGGCAUGCGGGGAGGAAGAGGUGGCCUCAUGGAUCGUGUUGGUCCCGGUGGAAUGUUCAGAGGUGGCCGUGGUGGAGACAG: -0.193

Set 4
Target: Replicase polyprotein 1ab, 3C-like proteinase (rep, Middle East respiratory syndrome-related coronavirus, UniProt K9N7C7)
Read-out: enzyme activity
Concentration: 10 µM
Quantity: inhibition
O=c1c2ccccc2[se]n1-c1ccccc1: 14%
S=C(S)N1CCCC1: 42%
CCN(CC)C(=S)SSC(=S)N(CC)CC: 12%

Set 5
Target: Replicase polyprotein 1ab, polymerase (rep, Severe acute respiratory syndrome coronavirus 2, UniProt P0DTD1)
Read-out: enzyme activity
Action: inhibitor
Concentration: 20 µM
Quantity: inhibition
C=CC(=O)Nc1cc2c(Nc3ccc(F)c(Cl)c3)ncnc2cc1OCCCN1CCOCC1: -10.1%
CCCC(C)(COC(N)=O)COC(=O)NC(C)C (stereo not shown): 0.88%
O=C(O)C(O)Cc1ccc(O)c(O)c1 (stereo not shown): 17.7%
CS(=O)(=O)c1ccc(C2=C(c3ccccc3)C(=O)OC2)cc1: -1.53%
O=c1ncnc2n([C@H]3O[C@@H](CO)[C@H](O)[C@@H]3O)[nH]cc1-2 (stereo in doubt): 0.83%
CNCc1ccc(-c2[nH]c3cc(F)cc4c3c2CCNC4=O)cc1: 36.6%
Cc1cccc(NC(=O)N[C@@H]2N=C(c3ccccc3)c3ccccc3N(CC(=O)c3ccccc3C)C2=O)c1: -1.93%
Cn1c(=O)c2c(ncn2CCOC(=O)C(C)(C)Oc2ccc(Cl)cc2)n(C)c1=O: -4.14%
C[C@@]12N[C@@H](Cc3ccccc31)c1ccccc12: 0.98%
Clc1ccc(C(Cn2ccnc2)OCc2ccsc2Cl)c(Cl)c1 (stereo not shown): -5.89%
C[C@]12C=CC(=O)C=C1CC[C@@H]1[C@@H]2CC[C@]2(C)OC(=O)CC[C@@H]12: 4.45%
CCOc1nc2cccc(C(=O)O)c2n1Cc1ccc(-c2ccccc2-c2nnn[nH]2)cc1: 5.22%
c1cn2cc(-c3ccc4cn[nH]c4c3)nc(Nc3ccc(N4CCOCC4)cc3)c2n1: -4.61%
COC(=O)CC[C@@H]1N=C(c2ccccn2)c2cc(Br)ccc2-n2c(C)cnc21: -2.64%
CS(=O)(=O)Nc1c(O)ccc2c1CCCC2C1=NCCN1 (stereo not shown): 3%
CC(O)Cn1cnc2c1c(=O)n(C)c(=O)n2C (stereo not shown): -0.41%
CC[C@@H](C)CNCC(=O)N1CCc2sccc2[C@@H]1COc1cccc(C)c1: -12.5%
COc1ccc(-n2nc(C(N)=O)c3c2C(=O)N(c2ccc(N4CCCCC4=O)cc2)CC3)cc1: 7.54%
O=C(Nc1ccc(Oc2ccc(Cl)cn2)c(Cl)c1)c1ccccn1: 1.15%
Cn1cc([S+](C)[O-])c(=O)c2ccc(F)cc21 (stereo not shown): -0.78%
CCN(CC)CCOC(=O)C1(c2ccc([N+](=O)[O-])cc2)CCCC1: -0.86%
Cc1cnc(-c2cc(N3CCN(C(=O)CCS(C)(=O)=O)CC3)ncc2Cl)c(C)c1: -0.27%
Cc1cc(=O)n(-c2ccccc2)[nH]1: 1.47%
CN1C(=O)/C(=C2/C(=O)Nc3ccccc32)c2ccccc21: 1.19%
OC[C@H]1O[C@H](O[C@H]2O[C@H](CO)[C@@H](O)[C@H](O)[C@H]2O)[C@H](O)[C@@H](O)[C@@H]1O: -1.34%

Set 6
Cell line: HEK-293T/ACE2
Concentration: concentration not given
Time: 16 (unit not given)
Relative to: vehicle
Quantity: viability
CC(=O)S[C@@H]1CC2=CC(=O)CC[C@]2(C)[C@H]2CC[C@@]3(C)[C@@H](CC[C@@]34CCC(=O)O4)[C@H]12: 105%
Cc1cn([C@@H]2C[C@@H](O)[C@H](CO)O2)c(=O)[nH]c1=O: 107%
CCCCCCCC(=O)N[C@H](CN1CCCC1)[C@H](O)c1ccc2c(c1)OCCO2: 94.5%

Excerpt of the above (set 6):
CC(=O)S[C@@H]1CC2=CC(=O)CC[C@]2(C)[C@H]2CC[C@@]3(C)[C@@H](CC[C@@]34CCC(=O)O4)[C@H]12: 105%
CCCCCCCC(=O)N[C@H](CN1CCCC1)[C@H](O)c1ccc2c(c1)OCCO2: 94.5%
Cc1cn([C@@H]2C[C@@H](O)[C@H](CO)O2)c(=O)[nH]c1=O: 107%
